Assay results collected from several papers.
Lines come from different studies, so protocols differ. Values joined by “and” are separate records of one study, mostly repeats; a detail may differ. Numbers after ± are the reported error.

For `Cc1cnc(N2CC3(CCOCC3)C2)c(C(=O)Nc2ccc(C(=O)N3CCc4cc(C(=O)Nc5c(C)cccc5F)sc4-c4ccccc43)cc2)c1`, the concentration was 13100 ng/mL (human, nasal epithelial lining fluid; inhaled, 5 mg twice daily, 96 h).
For `CC(C)n1c(Nc2cccnc2)nc2cnc(Nc3ccc(N4CCN(C)CC4)cc3)nc21`, “subjects with adverse event” read 21.4% (measured: investigations (SOC); healthy male subjects; oral, 100 mg, study, together with: itraconazole).
`C[C@@H]1CN(c2c(F)c(N)c3c(=O)c(C(=O)O)cn(C4CC4)c3c2F)C[C@H](C)N1` has a QTc interval of 355 ± 0.6 ms (male Hartley guinea pig, anaesthetized; intravenous infusion, 3 mg/kg, 10 min infusion, post-infusion).
`CNC(=O)c1ccc(-c2cnc3ncc(Cc4ccc5ncccc5c4)n3n2)cc1F` — result for “Lipase increased dose reduction/interruption”: 2% (Japanese patients; oral, 400 mg, any grade).
With `O=C(c1cccnc1-c1ccncc1)N1CCC(O)(Cc2ccccc2)CC1` the CL/F was 552 L/h (healthy Japanese adults, plasma; oral, 100 mg twice daily, day 7).
For `O=S(=O)(NC(CCc1ccccc1)C(F)(F)F)c1cccc(Cl)c1O` (stereo not drawn), “DLS scattered light intensity” read 292000 counts/s (colloidal aggregate formation, dynamic light scattering; 50 mM potassium phosphate buffer; 200 µM, pH 7.0, 1% DMSO; higher = more aggregation).
With `C[C@@H]1COCCN1c1cc(C2([S@](C)(=N)=O)CC2)nc(-c2cc[nH]c3nccc2-3)n1` the Pyrexia incidence was 0% (Japanese advanced solid tumour patients; oral, 240 mg twice daily, any grade).
`O=C(O)c1ccccc1S(=O)(=O)NCc1ccccc1C1CCC1` — result for “DLS scattered light intensity”: 317000 counts/s (colloidal aggregate formation, dynamic light scattering; 50 mM potassium phosphate buffer; 200 µM, pH 7.0, 1% DMSO; higher = more aggregation).
Under “minimum ACTH level”, `N#Cc1ccc2c(c1)[C@H]1CCCN(C(=O)c3ccc4[nH]cnc4c3)[C@H]1C2` is recorded as 4.1 pmol/L (human; 80 mg, day 15).
`CCc1cc(C(=O)NC)c2nccc(N3CCc4c(cc(Cn5ccnc5)cc4-c4cn(C)nc4C(F)(F)F)C3=O)c2c1` — result for “change in clinical chemistry or haematology parameter”: 8.04% (measured: HDW; Sprague Dawley rat; oral, 100 mg/kg once daily, 7 days; reference: vehicle).
For `O=C1CCc2ccc(OCCCCN3CCN(c4cccc(Cl)c4Cl)CC3)cc2N1`, “adverse event incidence” read 10% (measured: Tremor; genotyped patients, CYP2D6 poor metabolizers; dose not given, long-acting oral or depot).
For `Cn1c(C(F)(F)F)cc(=O)n(-c2cc(Oc3cccnc3OCC(=O)O)c(Cl)cc2F)c1=O`, the AUC(0-24 h) was 7600 ng·h/mL (Crl:CD(SD) rats, male, plasma; oral diet, 300 ppm in diet, day 1, 90-day toxicity study).
The Cavg of `Cc1cc(C)c(CNC(=O)c2cc(Cl)c3c(c2C)O[C@@](C)([C@H]2CC[C@H](N(C)C)CC2)O3)c(=O)[nH]1` is reported as 591 ng/mL (human NHL patients, plasma; oral, 200 mg/day, 15 day).
`O=C(Nc1ccc(OC(F)(F)Cl)cc1)c1cnc(N2CC[C@@H](O)C2)c(-c2ccn[nH]2)c1`: “grade ≥3 event rate” 0.3% (per laboratory record, measured: lipase increase; human patients; oral, dose not given).
`O=C(Nc1nc2cccc(-c3ccc(CN4CCS(=O)(=O)CC4)cc3)n2n1)C1CC1`: “treatment-emergent adverse events” 0% (measured: cardiac disorders; human rheumatoid arthritis patients; oral, 300 mg once daily, 4 weeks, regardless of relatedness).
`CCCCCCCOc1ccc(CCC(N)(CO)CO)cc1C(F)(F)F.Cl` gave a urinary excretion of 0.111% (healthy men, urine; oral, 0.25 mg once daily, day 21, fed state; reference: dose).
`O=C(COc1ccc(Cl)cc1)NC12CC(c3nnc([C@H]4C[C@@H](OC(F)(F)F)C4)o3)(C1)C2` — result for “participants maximum mild TEAE”: 100% (human both sexes; oral, 45 mg once daily, 14 days).
For `COc1ccc2c(c1)CN(C(=O)CCN1CCC(Cc3ccccc3)CC1)CC[S@@+]2[O-]`, “diastolic blood pressure” read 94 ± 24 mmHg (telemetry; conscious dog; intravenous, 8 mg/kg, 0.5 h).
Under “fraction excreted in urine (0-24 h)”, `CC(C)(Sc1ccncc1-c1ccc(C#N)c2ccccc12)C(=O)O` is recorded as 1.63% (human, urine; oral, 2.5 mg, together with: febuxostat 0 mg).
`CCc1ccc(C(COC)NS(=O)(=O)c2ccsc2C(=O)O)o1` (stereo not drawn) — result for “DLS scattered light intensity”: 384000 counts/s (colloidal aggregate formation, dynamic light scattering; 50 mM potassium phosphate buffer; 200 µM, pH 7.0, 1% DMSO; higher = more aggregation).
`Cn1cc(Nc2nccc(-c3ccc4c(c3)CN(C3COC3)CC[C@H]4NC(=O)c3cn(C(C)(C)C)nn3)n2)cn1` — result for “percent change from baseline”: 0.36% (measured: CD8+ T cell count; human, clinical trial, whole blood; 150 mg twice daily, follow-up).
Under “incidence of white blood cell decreased”, `NC1(C(=O)N[C@@H](CCO)c2ccc(Cl)cc2)CCN(c2nc[nH]c3nccc2-3)CC1` is recorded as 0% (metastatic CRPC patients; 320 mg b.i.d., any grade, treatment-related, together with: enzalutamide 160 mg daily).
`COC(=O)c1ccccc1-c1c2ccc(=O)cc-2oc2c1ccc1cccc(N(C)C)c12` gave an extinction coefficient of 10100 (aqueous HCl 10% DMSO; pH 1.9).
For `CCCC1CCC(c2ccc(-c3ccc(F)c(F)c3)cc2)CC1` (stereo not drawn), the concentration was 0.45 ng/mL (measured: compound; human pregnant women, male fetuses, maternal serum; dose not given, paired maternal-cord samples, mean).
Under “dry mouth incidence”, `FC(F)(F)c1ccc(CNc2ccc(Cc3c[nH]c4ncc(Cl)cc34)cn2)cn1` is recorded as 0% (patients with advanced solid tumours; oral, 1000 mg/day, TGCT cohort, grade ≥3).
`CO[C@H]1C[C@@H]2CC[C@@H](C)[C@@](O)(O2)C(=O)C(=O)N2CCCC[C@H]2C(=O)O[C@H]([C@H](C)C[C@@H]2CC[C@@H](O)[C@H](OC)C2)CC(=O)[C@H](C)/C=C(\C)[C@@H](O)[C@@H](OC)C(=O)[C@H](C)C[C@H](C)/C=C/C=C/C=C/1C` gave a heart rate of 35.5 ± 3.1 beats/min (healthy adult horses; oral, 0.06 mg/kg, 8 h).
For `COc1ccnc(C(N)=O)c1O`, “Freundlich coefficient KF” read 17.4 mL/g (soil adsorption; clay loam soil; pH 7.2, organic carbon 4.4 %).
`Cc1nc(-c2ccc(OCC(C)C)c(C#N)c2)sc1C(=O)O` gave a body weight of 35 g and 29.2 g and 29.6 g and 28.4 g and 31.6 g and 32.8 g (KM mouse, chronic hyperuricaemia model; dose not given, day 9).
With `Cl.[2H]C([2H])([2H])CC(=O)c1cnc(NC(=O)C2CC2)cc1Nc1cccc(-c2ncn(C([2H])([2H])[2H])n2)c1OC` the CL/F was 13.6 L/h (human, fed, plasma; oral, 25 mg, single dose, liquid formulation).
`CSc1nc(O)n2nccc2n1` gave an HC50 of over 128 µg/mL (haemolysis; sheep erythrocytes; 1 h, pH 7.5).
`COc1cc(F)c(NS(=O)(=O)c2cc(Cl)ccc2O)cc1OC` — result for “DLS scattered light intensity”: 502000 counts/s (colloidal aggregate formation, dynamic light scattering; 50 mM potassium phosphate buffer; 200 µM, pH 7.0, 1% DMSO; higher = more aggregation).
For `C[C@@H](Nc1cc(F)cc(F)c1)c1cc(C(=O)N(C)C)cc2c(=O)cc(N3CCOCC3)oc12`, “patients discontinuing for AE” read 0% (measured: Vomiting; advanced solid tumour patients; oral, dose not given, dose expansion).
`COc1cccc(OC)c1-c1cc(C(=O)NC2(C(=O)O)C3CC4CC(C3)CC2C4)nn1-c1ccc(C(=O)N(C)CCCN(C)CCCN(C)C(=O)CN2CCN(CC(=O)[O-])CCN(CC(=O)[O-])CCN(CC(=O)[O-])CC2)cc1C(C)C.[177Lu+3]` (stereo not drawn) — result for “tumour-to-large intestine ratio”: 34.4 (mouse HT-29 xenograft; 168 h, biodistribution; reference: tumour over large intestine).
Under “daily dermal exposure dose”, `Cc1ccc(O)c(-n2nc3ccccc3n2)c1` is recorded as 3640 ng/kg/day (human aged 6-11 years; concentration not given, spray sunscreen, 95th percentile).
Under “active uptake clearance”, `CC(C)c1nc(N(C)S(C)(=O)=O)nc(-c2ccc(F)cc2)c1/C=C/[C@@H](O)C[C@@H](O)CC(=O)O` is recorded as 104 mL/min/kg (cynomolgus monkey, suspended hepatocytes; dose not given; unbound, scaled in vitro).
`CCO[C@H]1CCN(Cc2c(OC)cc(C)c3[nH]ccc23)[C@H](c2ccc(C(=O)O)cc2)C1`: “incidence of abdominal distension” 0% (PNH patients, active haemolysis; oral, 200 mg, 8 weeks, treatment).
`CNC(=O)c1cc(Oc2ccc(NC(=O)N(c3ccc(Cl)c(C(F)(F)F)c3)[C@@H]3O[C@H](C(=O)O)[C@@H](O)[C@H](O)[C@H]3O)cc2)ccn1` gave an AUC(0-7.5 h) of 53900 ng·h/mL (mouse, Oatp1b2 knockout, plasma; oral, 10 mg/kg, geometric mean, together with: rifampin 20 mg/kg iv).
Under “subjects with treatment-related adverse event”, `CN1CCN(c2cccc3c2CCN(C(=O)/C=C/c2c(-n4cnnn4)ccc(Cl)c2F)[C@@H]3C(=O)Nc2ccc(C(=O)O)cc2)C(=O)C1` is recorded as 0% (healthy human subjects; intravenous infusion, 9 mg/h, 5 days).
`COc1ccc(-c2c(-c3ccc(C#N)c(F)c3)nc(N3CCC(N)CC3)n(C)c2=O)cc1F`: “discontinuation due to AE” 0% (relapsed/refractory MZL patients; oral, 60 mg, dose expansion).

A few entries again:
With `Cl.[2H]C([2H])([2H])CC(=O)c1cnc(NC(=O)C2CC2)cc1Nc1cccc(-c2ncn(C([2H])([2H])[2H])n2)c1OC` the CL/F was 13.6 L/h (human, fed, plasma; oral, 25 mg, single dose, liquid formulation).
For `COc1ccnc(C(N)=O)c1O`, “Freundlich coefficient KF” read 17.4 mL/g (soil adsorption; clay loam soil; pH 7.2, organic carbon 4.4 %).
`CNC(=O)c1cc(Oc2ccc(NC(=O)N(c3ccc(Cl)c(C(F)(F)F)c3)[C@@H]3O[C@H](C(=O)O)[C@@H](O)[C@H](O)[C@H]3O)cc2)ccn1` gave an AUC(0-7.5 h) of 53900 ng·h/mL (mouse, Oatp1b2 knockout, plasma; oral, 10 mg/kg, geometric mean, together with: rifampin 20 mg/kg iv).
Under “incidence of white blood cell decreased”, `NC1(C(=O)N[C@@H](CCO)c2ccc(Cl)cc2)CCN(c2nc[nH]c3nccc2-3)CC1` is recorded as 0% (metastatic CRPC patients; 320 mg b.i.d., any grade, treatment-related, together with: enzalutamide 160 mg daily).
`O=C(COc1ccc(Cl)cc1)NC12CC(c3nnc([C@H]4C[C@@H](OC(F)(F)F)C4)o3)(C1)C2` — result for “participants maximum mild TEAE”: 100% (human both sexes; oral, 45 mg once daily, 14 days).
